# Assay results pooled from the literature.
# Parts stem from different laboratories: compare values within a part only.

# Study 1 — technique: universal PBM; molecule type: double-stranded DNA, one strand shown; sample: in vitro; concentration: 600 nM; direction: higher = stronger binding
# Target: Sal-like protein 4, full length isoform A (SALL4, Homo sapiens, UniProt Q9UJQ4, residues 1-1053)
# UniProt Q9UJQ4, sequence (whole entry, looked up): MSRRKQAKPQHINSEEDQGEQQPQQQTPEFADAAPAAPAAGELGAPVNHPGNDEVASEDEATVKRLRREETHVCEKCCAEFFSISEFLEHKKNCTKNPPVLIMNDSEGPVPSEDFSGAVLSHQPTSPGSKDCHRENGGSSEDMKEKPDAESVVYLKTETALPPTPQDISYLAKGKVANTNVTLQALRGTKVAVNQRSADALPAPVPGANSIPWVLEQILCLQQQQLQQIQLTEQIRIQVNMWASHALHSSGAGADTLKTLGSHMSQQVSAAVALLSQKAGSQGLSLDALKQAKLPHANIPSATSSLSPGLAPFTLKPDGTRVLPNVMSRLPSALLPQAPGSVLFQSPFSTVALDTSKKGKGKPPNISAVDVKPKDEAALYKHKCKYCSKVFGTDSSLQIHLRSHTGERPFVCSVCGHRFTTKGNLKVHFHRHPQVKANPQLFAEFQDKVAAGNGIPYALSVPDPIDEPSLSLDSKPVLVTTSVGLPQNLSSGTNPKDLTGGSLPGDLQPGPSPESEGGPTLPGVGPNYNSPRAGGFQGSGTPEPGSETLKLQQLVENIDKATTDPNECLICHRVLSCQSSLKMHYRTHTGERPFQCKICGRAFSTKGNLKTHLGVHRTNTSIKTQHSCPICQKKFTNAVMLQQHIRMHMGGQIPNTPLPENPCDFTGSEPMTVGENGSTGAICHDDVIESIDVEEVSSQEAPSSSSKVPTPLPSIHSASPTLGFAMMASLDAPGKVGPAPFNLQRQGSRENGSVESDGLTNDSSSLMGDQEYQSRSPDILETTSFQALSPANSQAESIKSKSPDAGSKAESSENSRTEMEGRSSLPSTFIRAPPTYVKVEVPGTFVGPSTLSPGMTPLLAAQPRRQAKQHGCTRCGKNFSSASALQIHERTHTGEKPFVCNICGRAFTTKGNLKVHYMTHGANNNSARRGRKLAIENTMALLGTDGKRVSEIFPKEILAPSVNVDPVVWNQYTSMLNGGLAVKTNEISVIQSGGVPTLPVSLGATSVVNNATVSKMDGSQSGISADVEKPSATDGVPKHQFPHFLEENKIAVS
# Setting: 8-mer, flanks averaged, mean of replicates
Oligonucleotide,E-score
ATTACAGC,0.123
AGACCCAT,-0.0746
ACTTAAAC,0.138
CGCTCACA,-0.174
GCAACGTA,0.0629
CAGCCTCG,-0.182
AGTGGAAC,0.0567
CGATATGC,0.0847
AGCTGCCC,-0.275
CTGCACGA,-0.124
GCGGACGA,-0.282
ACCACGCG,-0.258
AGCGAACG,-0.308
CATGCTGC,-0.208
ACTCCATG,-0.112
ATTATACG,0.287
ACTCGAGA,-0.044
ATGGCTTG,-0.0536
TGGGACCA,-0.236
AGTTGTAA,0.141
CGTGCACA,-0.102
AAAGCATT,0.228

# Study 2 — technique: RNA Bind-n-Seq; molecule type: RNA; sample: in vitro; concentration: not given; baseline: input RNA pool; direction: higher = stronger binding
# Target: RING finger protein unkempt homolog, zinc fingers 1-6, GST-SBP tag (UNK, Homo sapiens, UniProt Q9C0B0, residues 30-357)
# UniProt Q9C0B0, sequence (30-357, looked up): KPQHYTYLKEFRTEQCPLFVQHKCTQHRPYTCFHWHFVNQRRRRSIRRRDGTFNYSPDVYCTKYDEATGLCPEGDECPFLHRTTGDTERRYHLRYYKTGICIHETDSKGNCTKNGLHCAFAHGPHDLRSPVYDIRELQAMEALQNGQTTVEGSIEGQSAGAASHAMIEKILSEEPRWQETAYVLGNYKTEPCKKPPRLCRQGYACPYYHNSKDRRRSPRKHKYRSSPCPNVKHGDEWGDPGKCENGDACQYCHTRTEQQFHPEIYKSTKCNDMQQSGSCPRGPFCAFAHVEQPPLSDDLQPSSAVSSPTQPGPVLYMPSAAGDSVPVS
# Setting: RNA with constant flanks, human-mouse chimeric sites, ends assumed
# Shared flanks, not repeated: GGGAGUUCUACAGUCCGACGAUC … CAACAGAGGAUUGAGCAUCA
Oligonucleotide,bound/input enrichment
AGUGUGCAGGAAUUCAUGACCUUCACGAGUCAACUGAUUGUGGAACGCUCGGGGAAAGGCAGCAGAGCUUCUGUCAAAGAACAAGAGUAUCUUUGCCAUGUCUACGUCCGGAAUGAUAGU,0.126 ratio
GCAAAGGAUGAUGAGGCGGCAGCUGUUGCCCUUUCCUCUCUCGUUCAUGCUUUGGAUGAGUUAAACAUGGUGGCCAUCGUCCGAUAUGCUUAUGACAAAAGAUCUAAUCCUCAAGUUGGU,0.233 ratio
GGAAGUACAUUAAUGGAGAUUGAUGGUGAUAAAGGCAAGCAGGGCGGGCCCACCUACUACAUAGACACCAAUGCCCUCCGCGUGCCCAGGGAGAACAUGGAGGCCAUCUCACCACUCAAG,0.23 ratio
AAUUUCCUGUCAUACUUUUUAGACAUUGCCAUAGGUAUUACAGAGCACCUGGCCACAUUCUAGGUUUGAAUUAUUUCUCAGCUAUGGAUAUGAUCAAAUGAGAACACUGCUUAACUAAUG,1.16 ratio
UCUGGUCACACUCGUGUGUAUGGUGUUUGCUUUGUUGACACUUCACUGGGCAAGUUUUUCAUCGGCCAGUUUUCGGAUGACCGCCACUGUUCCAGAUUUAGGACGCUAGUGGCUCACUAU,0.228 ratio
GAAACAUUUAAAUUUAAAGAAGCUGUUGUUCUAGGAAGCACGGACUUUCUAGAAGAUGAUAUAGAGAAAAUUGUAGAAGAACUGGGAAAAGAGUAUAAGGGCAACGCCUACCAUCUGAUG,1.28 ratio
AUCCCAAUUAUGGACACCGGUGAAAACCCAGAGGUUCCCUUCCCCCGGGACAUGAUCGACUUAGAGGCCAAUUUUGAGAAGAUUGAAAAUGAACUGAAGGAAAUCAACACAAACCAGGAA,0.23 ratio
ACCUCCCCCUCCCGCCUCACCCCACCCCCGCUUUUUGGAAAGUUUUUGGCGUUUCUUUUCCUUCCCCAUACAAAGUGAUUACAGUUUAGAGUCUAUGGGUCUAUCGAAGGGCUUGACGGA,1.32 ratio
CCCCACAUACCAUCUGUGGUCUGGAACUGCACUCUCUUUUUUAAAAAACAUGUAUACAUUUUAGGGCUGUAGAUUUAUUUUCCUGGUUUUGUUUUUCAUUGCUGACUUUUGAGCACAGAA,2.3 ratio
UACUACUAUGAUGGUGAUAUUGGCAAUUAUUAUUAUGGCCAGGGUCAUCCCAUGAAGCCUCAUAGAAUCCGGAUGACUCAUAACUUGCUGUUAAAUUAUGGUUUAUACCGAAAAAUGGAA,0.172 ratio
GAUAAGAAAAGCUUGUUGGAGACCCGCUUGCAUGUCACUGGCAGAGACCUGAGGUGUAAAAUAGCUGAAACUUUCGGAUUUCAAGAAAAUUACAUCAAGAUCGUAAUAAAUAAGAAACAG,0.2 ratio

# Study 3 — technique: RNA Bind-n-Seq; molecule type: RNA; sample: in vitro; concentration: 365 nM; baseline: no-protein control; direction: higher = stronger binding
# Target: RNA binding protein fox-1 homolog 2, RRM domain, GST-SBP tag (RBFOX2, Homo sapiens, UniProt O43251-10, residues 100-194)
# Setting: natural RNA segment, single round, ends assumed
# Shared flanks, not repeated: GGGAGUUCUACAGUCCGACGAUC … UGGAAUUCUCGGGUGCCAA
# Target sequence (chain): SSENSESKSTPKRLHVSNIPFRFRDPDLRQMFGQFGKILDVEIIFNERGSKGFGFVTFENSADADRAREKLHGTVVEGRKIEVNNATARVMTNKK
Oligonucleotide,RBNS enrichment (R)
UUUUUAUAUUUAAAAUGUUACUUUUCUGUAUGAUGUGCAUGCAAGUUUACCGUAACUUUUCUUAAACUUUUUAGUGCCGUUUCUAGUAUAUUCCUGUAAAUGUCAGUUAC,62.5
AUUCAAACCGCGAUGUUUACUUUUUGUAUUGAUCACUUUUUUGCACUCCUUCUUCGUUGUCGAUGUUGUACUCAGCCUAUGGUAGGAGAGGAUGUGGCUUUGCAACUCAG,1.13
CAUUGUUUUCAAAUAAACAGUGUUUUCCAUGACUGAGAUAUUUAUUUUUGGGAAAGCAACGAGGUAAAAAUUAUGUUUCUCAGAUGCACUGCUACUUUGGCGUUAUUACU,0.699
UGCCAGGCUCAGUUCCCACCCACACCAGCACUUCCCUUCCUUCUGGUUUUCUGCCUGUGUGCUGCCCAAGGCUCAAUCAGUGCUAAGCUUCAUAGAUGGCAUAUACCCUU,0.235
GGAAGUGGCAGUAAAAAGUAUUGAGUGUUUUAUGCUGGUGACUGUAACCAAUGUCAUCUUGCUAAAUUCAUGUUUUGUACAAUUACUAAAUUGUAUACAUUUUGUUAUAG,0.589
ACGGUGCCAAAAUUCAUUUUCUAACACCAUGUGUUAGAAAAUUAUAAAAAAUAAAAUAAUUUUAGAAGUUUUGUUGUUCUAUUAUUGGUGUUUAUCUUCCAACGUGAAUA,0.836
UCAUGAGAAGUUUGAUUCAGUAACUUGUGAUGGAGGAUUCUUUGGUAUCUUACUGUUUGGUUAAGGCACUAAUUUUACUUACCUAUUAGAUUUUGAAAGUAUCUGAGAUA,0.588
CCUUUCUUCACACUCACAUUUACCAAUGACUCUGCUCCGUUUUUGGAGCAGACUGUUUUAAGUUGCUCAGGAGCCUGAUGGAACCAUGAACCGAGACUCUUCUCUGUUUC,0.632
UGUUGUUGCAGAUCAGUAAUUGUGCCUAAAAGAGACAGAAGUGAAAAAGAGACAAGCUCUGAGGGCAAAACCCAUACAAAUUUGGAGCAAAUAAAAGCCCAGGUCUGAGA,0.516
GGGGCUACUUUUUUCCCUCUAAACUAAAAAAGACAUUGGCUGAAUUAUAACUAGUUAGUUAUCACCUCGUCCCUUAAAGUCAGUGACCUCCUGUGUUUGAUGUAUAUUAC,0.686
UGUUGAAAGGCUACCAGUUAUAUUUGCUGUUAAUAGUCUAUUUGUAGAUUAGGAUUAAAGUGGGUUUAAUCCAUUUUUAUAGCUGUAUGAAUUUUUCUAAACAGGAACAG,0.457
AGGAAGUUGCUAUUGGCCACAUAACUAGGCUUCCAUGUUGUACAGCAGUGAGUGGUUCCAUAUGGCUCUGUUCAAACUGAGCACAUUUUGCCUUUUUUCUUUCUUUUCUU,0.513

# Study 4 — technique: EMSA with sequencing; molecule type: double-stranded DNA, one strand shown; sample: in vitro; concentration: 10 and 20 nM; baseline: negative control set to 0; direction: higher = stronger binding
# Target: Hepatocyte nuclear factor 3-alpha (Foxa1, Mus musculus, UniProt P35582, residues 1-468, full length assumed)
# Setting: whole designed probe, mean of two concentrations, ends assumed
# Shared flanks, not repeated: GTGAGCGGTGCCCATTGATGGGGAAC … TTTCACTGGGATCGTGGGGAC
# Residues (chain): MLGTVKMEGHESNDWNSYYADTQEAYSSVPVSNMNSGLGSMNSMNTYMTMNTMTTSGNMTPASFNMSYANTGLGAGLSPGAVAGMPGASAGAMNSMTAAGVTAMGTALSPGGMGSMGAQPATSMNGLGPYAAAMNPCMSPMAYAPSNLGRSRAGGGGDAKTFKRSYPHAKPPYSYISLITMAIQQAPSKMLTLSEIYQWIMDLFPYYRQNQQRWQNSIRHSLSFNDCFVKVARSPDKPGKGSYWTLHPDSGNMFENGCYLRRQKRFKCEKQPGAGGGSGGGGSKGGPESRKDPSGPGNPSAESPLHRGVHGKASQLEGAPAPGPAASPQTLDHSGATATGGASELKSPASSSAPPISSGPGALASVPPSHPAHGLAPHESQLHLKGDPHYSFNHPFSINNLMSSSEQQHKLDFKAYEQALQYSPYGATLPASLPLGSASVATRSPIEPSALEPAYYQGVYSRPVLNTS
Oligonucleotide,normalised bound fraction [ratio]
TTAAAATTCCAAAGCACAAGTAGTAAAACAAATAAACATAAAAGGTTTGATTCAAAATTAAATATTTTTTCATTCTACAAAGGATATAACAAAGTAAATAAAGAAATAAAGAATAGGAGAATATATTTATGCCTCAAACAAAAAAAATCATCTGGCATATACAAGAAATTCCTACAAGTCAACATTTTAAAAA,0.376
CTGAGGTCAGGAGGCCGGCATGCGTGACCCTTTGTCTCTGGGAGTCCAGATTTCCTAATGCAGGGCTCTTTCTAACACAGAAAGCAAGGTTGAGTAATTTCATGAGCTCATGCTCTGTTGGCACGTAGGGCATTGCTGTGTTGATTCACTCATGGAAACAGGAATGCTTCTGTACACCCTGTGCTTGTAACGT,-0.0235
TGGTTTTAAAGACTAACAGGATAATGGCGTTTCTTGTTTAGCGGCATAAATTGTGAATGTGTTCCATTAAATTTCCATATGGCATCATGACAATGTAATCTCAGACCATCAAGAAGGTCCATAGACTGGCCACTGAGAGAACTCTGGGGGCCCATTGTGATGCTCTCTGGCTAGTCCATCGGGGTCTACATGA,-0.0483
TTTCCAGCCCTTAGTTTCTGGCATTTAACCTGACTCTGGTCCCTGAATGGCATGGGAGTGCTTTCAACCACAGGTTTCCACATTCATGCCACTTGTTTGCTTTTCTGACTCATTCTGATCTACAGAGATCTTTATTTGCTTTGTGTTTCCAATGGAGAAAGAGCTTGGGAAGGGAGGATCCTAATTGTCTAAA,0.486
CACCGCGCTCGCACGGCTTTGTCCGTGCTACAAAGCAGCCTGTTAAACTATTGGAACTAATGCGCCGCAGCTGCGCGAGTGACTTCTGCTGCTAAAGTACATAAAAAGTCCTGGGGGGAGGGCTTAACCATCAGATGCCTGCTGCTGGGTTGTTTGGCTAGTCTTTCCATTTGCTTATTCCTGAATCCAAAGG,0.195
CTTTATTAGTTACATGAGTTGGGCAAAACCTTTTGGAATAGTACCAGTGTCACCAAGACAACAGGATGGTTATAGAAAGGCAGAAAAACAATGTAAACAAACATTTTATAAGCATAAATAATAATAGTTATTCTTCTATATACATTCAGTGTCTCTAAGCAGATCCAAAGATTTGCCAAGTTTTAATGAGATG,0.473
TAAAATATTTAGATAAACTTAGATCCACTGTAGCTTGAAATTGTAATTTTCCCAGAGATTTCTATGGAATTAATTTTGTAAGAAACTAATATGTAAACATGAATGCTAATTTATAGATGCTTTTGCTTTTATCAGTAATATTTAATGTAGTTCTCTTCTATTTTTTGAAAATGATTACCTTGCTAAAGACATT,0.234
ATCTTCCCCCTCTTCCTTGCCCCACCAGCTCACCTACGGGGGTTATTTGCACAAAGGAAAATAAATAAAGCCGGCATTCGTTAACGCAGTTCTGGCGCAAACTGCTGTTTGCTCTGGATCTAACATGGTCCTTTGGCGAGGCGTGGCTCCGGGAGAGCAAAGCACCGTGTCAGGGCCATGATCCGGGGTGGCC,0.383

# For quick reference, copied from above (study 1):
Oligonucleotide,E-score
ACTCCATG,-0.112
ATTATACG,0.287
ACTCGAGA,-0.044
ATGGCTTG,-0.0536
TGGGACCA,-0.236
AGTTGTAA,0.141
